# Measured values pooled from the literature.
# Numbered parts are unrelated; each lists some results of a single study.

# Series 1 — technique: protein binding microarray; form: double-stranded DNA, one strand shown; matrix: in vitro; concentration: not given; baseline: not given; direction: higher = stronger binding
# Target: Histone acetyltransferase KAT6A, winged helix 1, GST fusion (KAT6A, Homo sapiens, UniProt Q92794, residues 1-85)
# Notes: 8-mer, flanks averaged, mean of 2 arrays, mostly near background
# Residues (chain): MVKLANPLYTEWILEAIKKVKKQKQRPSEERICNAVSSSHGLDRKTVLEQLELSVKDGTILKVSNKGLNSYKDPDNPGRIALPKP
Oligonucleotide,E-score
TAATCAAA,-0.143
GGGAACAA,0.021
AGGTGAGG,-0.13
AAACAGGG,-0.0741
GCGTGCCA,0.206
AAGGGCTC,-0.0817
AAAGCCCA,-0.187
ATCTTCTC,-0.144
CCGTGGCC,0.349
ATCCGTGG,0.136
CAGTCTCC,-0.071
TAATGAGA,-0.0876
AACGCAAA,0.0821
AGAGTGCA,-0.135
TAAGCTCA,-0.109
GATGGTGC,-0.117

# Series 2 — technique: RNA Bind-n-Seq; form: RNA; matrix: in vitro; concentration: 200 nM; notes: whole 134-nt RNA, ends assumed; added: 150 mM LiCl; baseline: input library; direction: higher = stronger binding; library: 7-deaza-guanosine replaces G
# Target: Fragile X messenger ribonucleoprotein 1, C-terminal low-complexity region (Fmr1, Mus musculus, UniProt P35922)
Oligonucleotide,log2 enrichment
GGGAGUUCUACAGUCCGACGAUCUUCCUCAAGUCCUGUGCUACACAUCGUAUGUACCGAAUCGGAGGAGGAGGAAAGUAUUAUGUUACGCCGUUCGGAUCUGCACUUCCAGCAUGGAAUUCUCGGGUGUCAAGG,-2.79
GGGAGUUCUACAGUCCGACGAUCCCUGUGCUACACAUCGUAUGUACCGAAUCGGGAAAAAAAGGGUUUUUUUGGGAAAAAGGGAAAGUAUUAUGUUACGCCGUUCGGAUCUGCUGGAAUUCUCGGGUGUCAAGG,-2.36
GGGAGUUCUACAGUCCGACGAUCGGCAGUAGCAGCAGCGCCGGGUCCCGUGCGGAGGUGCUCCUCGCAGAGUUGUUUCUCGAGCAGCGGCAGUUCUCACUACAGCGCCAGGACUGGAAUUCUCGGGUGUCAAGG,-2.11
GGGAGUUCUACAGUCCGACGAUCCUGUGCUACACAUCGUAUGUACCGAAUCGGGUUUUUUUGGGUUUUUUUGGGGUUUUUUUGGAAAGUAUUAUGUUACGCCGUUCGGAUCUGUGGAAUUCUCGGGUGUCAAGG,1.08
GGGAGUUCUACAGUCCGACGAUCUCAAGUCCUGUGCUACACAUCGUAUGUACCGAAUCGGUUUGGGUUUGGUUUGGGGAAAGUAUUAUGUUACGCCGUUCGGAUCUGCACUUCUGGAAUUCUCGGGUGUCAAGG,-1.24
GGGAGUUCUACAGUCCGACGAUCCCUCAAGUCCUGUGCUACACAUCGUAUGUACCGAAUCGGAAAGGUUUGGUGGAAAGUAUUAUGUUACGCCGUUCGGAUCUGCACUUCCAGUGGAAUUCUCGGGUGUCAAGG,-0.93
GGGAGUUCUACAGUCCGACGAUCGUCCUGUGCUACACAUCGUAUGUACCGAAUCGGGCCCCCGGGCCCCCGGGCCCCCGGGAAAGUAUUAUGUUACGCCGUUCGGAUCUGCACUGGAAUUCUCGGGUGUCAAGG,-2.81
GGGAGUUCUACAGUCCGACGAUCACGAUGCAGGUGGGCAUCUUUGGGAAGUGGGGCAAGGGGGGGAUAGGGAGGGGGGUAACACUUUGGGAACAGGUGGUCCCAGGUCGUUUCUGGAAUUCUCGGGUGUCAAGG,1.42
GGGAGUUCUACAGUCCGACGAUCAGUCCUGUGCUACACAUCGUAUGUACCGAAUCGGAAAAAAAGGUUUUUUUGGAAAGGAAAGUAUUAUGUUACGCCGUUCGGAUCUGCACUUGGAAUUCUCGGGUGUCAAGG,-3.67
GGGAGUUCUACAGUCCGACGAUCGUCCUGUGCUACACAUCGUAUGUACCGAAUCGGGGUUUUGGGGUUUUGGGGUUUUGGGGAAAGUAUUAUGUUACGCCGUUCGGAUCUGCAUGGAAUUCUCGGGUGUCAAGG,-0.25
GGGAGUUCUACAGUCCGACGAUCCUGUGCUACACAUCGUAUGUACCGAAUCGGGGAAAAAAAGGGGAAAAAAAGGAAAAAAAGGAAAGUAUUAUGUUACGCCGUUCGGAUCUGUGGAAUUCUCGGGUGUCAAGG,0.139

# Series 3 — technique: RNA Bind-n-Seq; form: RNA; matrix: in vitro; concentration: not given; baseline: input RNA pool; direction: higher = stronger binding
# Target: RING finger protein unkempt homolog, zinc fingers 1-6, GST-SBP tag (UNK, Homo sapiens, UniProt Q9C0B0, residues 30-357)
# Sequence of UniProt Q9C0B0 (30-357, looked up): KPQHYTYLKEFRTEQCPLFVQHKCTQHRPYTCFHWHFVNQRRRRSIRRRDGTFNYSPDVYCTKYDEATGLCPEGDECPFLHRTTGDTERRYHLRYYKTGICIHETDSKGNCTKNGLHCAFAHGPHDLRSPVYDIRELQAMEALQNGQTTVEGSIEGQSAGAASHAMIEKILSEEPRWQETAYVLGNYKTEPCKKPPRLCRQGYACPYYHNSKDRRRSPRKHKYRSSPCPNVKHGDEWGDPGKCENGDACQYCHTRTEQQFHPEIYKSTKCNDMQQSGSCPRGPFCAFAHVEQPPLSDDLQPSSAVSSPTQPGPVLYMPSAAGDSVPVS
# Notes: RNA with constant flanks, human and mouse sites, ends assumed
Oligonucleotide,bound/input enrichment
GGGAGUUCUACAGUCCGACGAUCCACUCGAGCCAGCACCACCGUUCUCACGCCCUGAGCUGCAGACAGCUAGGCGGUUUUAUCUAGUUUGAACCAGGCUGCUGGAGCUUGCUCCCUCCCGCCCUCUCUCUUUUUUUUCCACGGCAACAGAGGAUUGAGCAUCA,0.263 ratio
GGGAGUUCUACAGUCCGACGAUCUGGGCGGUUUGUGCUUUCAUCACAUUUGUUAACAGGUCAAAAUGCAGAUCUUCGUGAAGACCCUGACCGGCAAGACCAUCACCCUAGAGGUGGAGCCCAGUGACACCAUCGAGAACGUGACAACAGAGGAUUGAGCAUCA,0.102 ratio
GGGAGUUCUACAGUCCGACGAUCAAGAAGUCUCAGUAGUAAUCUUGUUCAUGUGCUUUUACAGCCAGCUACAUUUAAGAAUGUAUUAGUUACAGAAAUUAUAUGUCUGUGUAUGUGUCUCUACUCAAUAAAGUACAUGCCUCCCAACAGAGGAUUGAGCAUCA,6.36 ratio
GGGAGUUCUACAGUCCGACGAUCUUCAAGAAGAAAAGAAUCGUCACGACCCCGCAGACUGUCCUCCGGAUAAACAGCAUUGAGAUUGCUCCGUGUUUGUUGUGAUUACCGAGUUAAUACUUACAAAAGGAUAAAAAUAAACUCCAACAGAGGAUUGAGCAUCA,0.186 ratio
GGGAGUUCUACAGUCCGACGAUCGUGAAAUUUGGAGAGAGCAUUGAGGACCUACAGACCUGCCGGCUCCUAAUUAAGCAUUACAUUCCACCAGGACUCUUUGUGGAUCCCUAUGAGUUGGCUUCACUACGAGAAAGGAACUUACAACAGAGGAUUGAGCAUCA,0.399 ratio
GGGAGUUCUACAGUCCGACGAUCUUAGCUAAACAUCCAUGUAAUGCCUCAAUGGAAUGUGACAAGUGUCAGAGGCGGCAGAAGAAUAGAGCAUUUUGCUACUUUUGUAAUUCUGUACAGAAGUUACCAAUUUGUGCACAGUGUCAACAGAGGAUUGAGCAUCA,0.683 ratio
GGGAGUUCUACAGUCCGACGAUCCGCAACCUGUCACAUAAUAGGCGUGUGCCAAAAAUCGGGCCUUACCCAGAUUAUUCCUCUUCCUCAUAUAUUGAAGACUCUAUCCAUCAUACUGACAGCAUUGUGAAGAAUAUUUCCUCUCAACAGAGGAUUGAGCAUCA,0.33 ratio
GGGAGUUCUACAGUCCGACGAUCGAGAUGAAGAAGAAGAUUAACCUGGAGUUAAGGAACAGAUCCCCGGAGGAGGUGACAGAGUUAGUCCUUGAUAAUUGCCUGUGUGUCAAUGGGGAAAUUGAAGGCCUGAAUGAUACUUUCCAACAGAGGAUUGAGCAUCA,0.232 ratio
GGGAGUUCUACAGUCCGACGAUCUGAUAUUUUUUGUCCUGGUCAUUUUCUUGGGCUCAUUUUAUUUGGUGAAUUUGAUCCUGGCUGUGGUGGCCAUGGCCUAUGAGGAGCAGAAUCAGGCCACCUUGGAAGAAGCAGAACAAACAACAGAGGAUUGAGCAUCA,0.304 ratio
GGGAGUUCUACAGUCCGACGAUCUUCAGAAGGCACCAGCUUUUCUCUCUGGAUCCAUUCAUCCAAAGAAAUAUGUUUGUACUAUUUUUACAAGCUUUUUAUUUUUACUUCAUCACAGGGAAGUUCAGUCCCAAGAUGGAAAUGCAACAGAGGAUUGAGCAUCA,0.326 ratio
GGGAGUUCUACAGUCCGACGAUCUUUGGCUGGGACAAGGUUGAAAGGAGCUUUGCUGACUGUUUUGUUUUCCCAUCACAUUGACACUUUAUUCAAUAAGUAAAACUCAUUACAGUUCCGAGCCGUGCUGGAGGCCUCUGCUUGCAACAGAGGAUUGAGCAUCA,0.202 ratio

# Series 4 — technique: RNA Bind-n-Seq; form: RNA; matrix: in vitro; concentration: 365 nM; baseline: no-protein control; direction: higher = stronger binding
# Target: RNA binding protein fox-1 homolog 2, RRM domain, GST-SBP tag (RBFOX2, Homo sapiens, UniProt O43251-10, residues 100-194)
# Notes: natural RNA segment, single round, ends assumed
# Construct (chain): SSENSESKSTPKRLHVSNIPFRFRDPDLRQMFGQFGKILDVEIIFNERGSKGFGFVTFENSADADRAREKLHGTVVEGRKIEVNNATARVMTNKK
Oligonucleotide,RBNS enrichment (R)
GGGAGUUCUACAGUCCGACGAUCCAGACUGGAAAAGUGAUGUAUUUUCAUAGUGACCUGUGUUUCACUUAAUGUUUCUUAGAGCCAAGUGUCUUUUAAACAUUAUUUUUUAUUUCUGAUUUCAUAAUUCAGAAUGGAAUUCUCGGGUGCCAA,0.593
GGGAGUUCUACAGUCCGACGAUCAUCUCAAUCGUUGCUGAAUCCUUUCAUAUCCUAAUAGGAAUUAACCUCCAAAUAAAACAUGACUGGUCGUGUGCUGAUUGCCUGCCUGUCUGCCGUAGCCAUUAUCCCAUUGGAAUUCUCGGGUGCCAA,0.568
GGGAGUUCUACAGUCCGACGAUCCUGUAGACCAGCUGGCCUCAAACUCAGAAAUCCGCCUGUCUCUGCCUCCCGAGCACUGGGAUUAAAGGUGUGCACCACCACUGUCUGGCUCAGGAAAGCUGUUUUUACACUGGAAUUCUCGGGUGCCAA,0.315
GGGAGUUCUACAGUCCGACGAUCGCAACAAAUGUUUUACUAUUUUUACAGGAUACUGUAAGGAAUAAUUUGACUUUUAAGAAAUCUUAAAUAUAAAUUUUCUGUGCAUUAAUGUAGUACCUCAUAGUUAAAACUGGAAUUCUCGGGUGCCAA,1.17
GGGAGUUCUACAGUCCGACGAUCGAGAUUACAGGCGUGAGCCACCGCACCUGGCCAAUGUUCUUUUAUAUACUCAUGUUUUCUAACAAAACAGCUUUGGAUUUAUAAUGCUGCCAGAUGUCAUUACAAUUUUUUGGAAUUCUCGGGUGCCAA,0.423
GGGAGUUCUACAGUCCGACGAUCCUUGACUGACCCGUGCUCCUGGAGGAUCCCCAGUUGUGUCAAUGAUAGAUAGUUUAGUCAACAUCCCCAUCUUGUGUCAAUCUGGACUCAGAGGAAGGAGUCAGCAUCCUUGGAAUUCUCGGGUGCCAA,0.43
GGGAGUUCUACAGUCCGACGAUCUUUAGUGAGACACUUCUGAGUACUUGCUUUUUCCUUUGACUUCUAACCAACUAAAAGAGAAGGAGGUCUUCAUGUUGAUAUUUUGCUUGGUUUUAUUUUACUGAUUUUAAUGGAAUUCUCGGGUGCCAA,0.547
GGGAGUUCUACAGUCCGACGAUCUACAUUUCUGAAAGCUUUCAAUCUUCAAGAGACAAAAAAAAUUAAAAUAACUACCCUCAGCAAACACUAGCUGUUCUGCUCAUAUAUGAAUUUUUAAUGCAGCAAUGUUGUGGAAUUCUCGGGUGCCAA,0.407
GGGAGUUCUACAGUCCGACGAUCGAAGUUAUCUACAAGCCGCUGGGGCUUGGGGGCUCCACUGGCUCCCCCCAGCCCCCUAAGAGAGCACCUGGUGAUCACGUGGUCACGGCAAAGGAAGACGUGAUGCCAGGUGGAAUUCUCGGGUGCCAA,0.391
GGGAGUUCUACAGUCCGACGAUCGUCUUGUUUUCAUUUGAUUUUUGUUAAGAGUGCAGUAUUGCAGAGUCUAGAGGAAUUUUUGUUUCCUUGAUUAACAUGAUUUUCCUGGUUGUUACAUCCAGGGCAUGGCAUGGAAUUCUCGGGUGCCAA,1.56
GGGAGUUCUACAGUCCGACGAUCUAUGUAUGUUUUAUGUAGUCCUCCUCCUGUACCUAUUGUAUAUUUUUUUUCUAAGGUUUAAGCACAUGCCUUUUGUAUUAUGCAGUAUAUAAUGGGUGUGCAGCCAUAGCUGGAAUUCUCGGGUGCCAA,0.942
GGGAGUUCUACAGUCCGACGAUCUGCCACGUGCUGCUGCCGCCAGGAUAUGCGCCUUCCCACAGGUGCCCUGCCUGAGUUGUGUGCAUCCAGGGGCCUGGUGAGCCCCCAGGCUGGUGGCAUGGCCCCCCUGCUGGAAUUCUCGGGUGCCAA,0.682
